Assay results pooled from the literature.
Each line is one published result; not all experiments were run side by side. “And” joins repeats or separate records; there may be more than shown. ± gives the spread as reported.
Organism: Escherichia coli

Compound | test | test system | setting | endpoint | value
C#CCCCC(=O)NCC | LuxR reporter, antagonist | DH5α sensor strain | 40 µM, with: OHHL 200 nM | inhibition | 13 ± 1%
Cc1c(CN(C)C(=O)/C=C/c2cnc3c(c2)CC(NC(=O)OC(C)(C)C)C(=O)N3)oc2ccccc12 (centres unmarked) | broth microdilution | AR-0151 |  | MIC | > 32 µg/mL
OC[C@H]1O[C@@H]2O[C@H]3[C@H](O)[C@@H](O)[C@@H](O[C@H]4[C@H](O)[C@@H](O)[C@@H](O[C@H]5[C@H](O)[C@@H](O)[C@@H](O[C@H]6[C@H](O)[C@@H](O)[C@@H](O[C@H]7[C@H](O)[C@@H](O)[C@@H](O[C@H]8[C@H](O)[C@@H](O)[C@@H](O[C@H]1[C@H](O)[C@H]2O)O[C@@H]8CO)O[C@@H]7CO)O[C@@H]6CO)O[C@@H]5CO)O[C@@H]4CO)O[C@@H]3CO | LuxR reporter, antagonist | DH5α sensor strain | 40 µM, with: OHHL 200 nM | inhibition | -5%
CC(C)Oc1c(NC(=O)c2ccc(NC(=O)[C@H](CC(N)=O)NC(=O)c3ccc(NC(=O)c4ccc(C#N)cc4)cc3)cc2)ccc(C(=O)Nc2ccc(C(=O)O)cc2)c1O |  | ATCC 25922, neutropenic mouse thigh infection | iv, 50 mg/kg/day | bacterial load reduction below stasis | 2.44 log10 CFU/g
CC(=O)Oc1ccc(-c2c(C(N)=O)c(N)n(N)c(=O)c2C#N)cc1 | time-kill |  | 1 x MIC, 30 min | viable count | 3.64 log CFU/mL
C[C@@H](O)[C@H]1C(=O)N2C(C(=O)O)=C(SCCN=CN)C[C@H]12 |  | 2904, female ICR mice, peritonitis, peritoneal fluid | dose not given, 168 h | bacterial load | 4.12 log CFU and 4.52 log CFU and 4.22 log CFU and 4.43 log CFU and 3.82 log CFU and 3.52 log CFU
N#Cc1c(-c2ccc(OCc3ccccc3)cc2)c(C(N)=O)c(N)n(N)c1=O | time-kill |  | 1 x MIC, 120 min, 2 h | viable count | 0 CFU
COC(=O)[C@H]1[C@H]2C[C@@H]3c4[nH]c5cc(OC)ccc5c4CCN3C[C@H]2C[C@@H](OC(=O)c2cc(OC)c(OC)c(OC)c2)[C@@H]1OC | checkerboard | tetracycline-resistant (pBR322) | 64 µM, with: tetracycline | tetracycline MIC | 450 µM

Some of these lines once more:
Compound | test | test system | setting | endpoint | value
C#CCCCC(=O)NCC | LuxR reporter, antagonist | DH5α sensor strain | 40 µM, with: OHHL 200 nM | inhibition | 13 ± 1%
